Measured values of several laboratories.
Compare with care: the assays were run in different laboratories. Square brackets hold non-standard residues; d marks the D form. Ends that are not written are not given here.
T1: Nedd4 HECT domain; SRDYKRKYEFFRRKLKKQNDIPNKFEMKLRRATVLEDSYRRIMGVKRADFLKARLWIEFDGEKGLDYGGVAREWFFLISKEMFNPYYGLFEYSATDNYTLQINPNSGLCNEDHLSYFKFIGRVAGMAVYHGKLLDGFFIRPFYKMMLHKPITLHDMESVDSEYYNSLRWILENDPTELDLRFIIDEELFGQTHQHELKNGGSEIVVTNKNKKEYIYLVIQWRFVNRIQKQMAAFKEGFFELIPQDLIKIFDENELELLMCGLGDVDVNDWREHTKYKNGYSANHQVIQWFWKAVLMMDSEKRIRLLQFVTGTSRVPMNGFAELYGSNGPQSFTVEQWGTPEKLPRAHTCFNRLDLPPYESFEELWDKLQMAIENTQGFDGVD
B1: recA 2-353 (Escherichia coli, UniProt P0A7G6); chain AIDENKQKALAAALGQIEKQFGKGSIMRLGEDRSMDVETISTGSLSLDIALGAGGLPMGRIVEIYGPESSGKTTLTLQVIAAAQREGKTCAFIDAEHALDPIYARKLGVDIDNLLCSQPDTGEQALEICDALARSGAVDVIVVDSVAALTPKAEIEGEIGDSHMGLAARMMSQAMRKLAGNLKQSNTLLIFINQIRMKIGVMFGNPETTTGGNALKFYASVRLDIRRIGAVKEGENVVGSETRVKVVKNKIAAPFKQAEFQILYGEGINFYGELVDLGVKEKLIEKAGAWYSYKGEKIGQGKANATAWLKDNPETAKEIEKKVRELLLSNPNSTPDFSVDDSEGVAETNEDF
B2: RNase B unfolded, reduced (UniProt P61823); N-glycan, DyLight 680 label; sequence looked up; chain KETAAAKFERQHMDSSTSAASSSNYCNQMMKSRNLTKDRCKPVNTFVHESLADVQAVCSQKNVACKNGQTNCYQSYSTMSITDCRETGSSKYPNCAYKTTQANKHIIVACEGNPYVPVHFDASV
B3: UBE2D3 (Homo sapiens, UniProt P61077); chain MALKRINKELSDLARDPPAQCSAGPVGDDMFHWQATIMGPNDSPYQGGVFFLTIHFPTDYPFKPPKVAFTTRIYHPNINSNGSICLDILRSQWSPALTISKVLLSICSLLCDPNPDDPLVPEIARIYKTDRDKYNRISREWTQKYAM
B4: MMADHC 116-296 (Homo sapiens, UniProt Q9H3L0); sequence looked up; chain MAQYVNEFQGNDAPVEQEINSAETYFESARVECAIQTCPELLRKDFESLFPEVANGKLMILTVTQKTKNDMTVWSEEVEIEREVLLEKFINGAKEICYALRAEGYWADFIDPSSGLAFFGPYTNNTLFETDERYRHLGFSVDDLGCCKVIRHSLWGTHVVVGSIFTNATPDSHIMKKLSGN
B5: UGT1A9 (Homo sapiens, UniProt O60656); chain GKLLVVPMDGSHWFTMRSVVEKLILRGHEVVVVMPEVSWQLGRSLNCTVKTYSTSYTLEDLDREFKAFAHAQWKAQVRSIYSLLMGSYNDIFDLFFSNCRSLFKDKKLVEYLKESSFDAVFLDPFDNCGLIVAKYFSLPSVVFARGILCHYLEEGAQCPAPLSYVPRILLGFSDAMTFKERVRNHIMHLEEHLLCHRFFKNALEIASEILQTPVTEYDLYSHTSIWLLRTDFVLDYPKPVMPNMIFIGGINCHQGKPLPMEFEAYINASGEHGIVVFSLGSMVSEIPEKKAMAIADALGKIPQTVLWRYTGTRPSNLANNTILVKWLPQNDLLGHPMTRAFITHAGSHGVYESICNGVPMVMMPLFGDQMDNAKRMETKGAGVTLNVLEMTSEDLENALKAVINDKSYKENIMRLSSLHKDRPVEPLDLAVFWVEFVMRHKGAPHLRPAAHDLTWYQYHSLDVIGFLLAVVLTVAFITFKCCAYGYRKCLGKKGRVKKAHKSKTH
B6: nqo4 (Thermus thermophilus, UniProt Q56220); sequence looked up; chain MREEFLEEIPLDAPPEEAKELRTEVMTLNVGPQHPSTHGVLRLMVTLSGEEVLEVVPHIGYLHTGFEKTMEHRTYLQNITYTPRMDYLHSFAHDLAYALAVEKLLGAVVPPRAETIRVILNELSRLASHLVFLGTGLLDLGALTPFFYAFRERETILDLFEWVTGQRFHHNYIRIGGVKEDLPEEFVPELKKLLEVLPHRIDEYEALFAESPIFYERARGVGVIPPEVAIDLGLTGGSLRASGVNYDVRKAYPYSGYETYTFDVPLGERGDVFDRMLVRIREMRESVKIIKQALERLEPGPVRDPNPQITPPPRHLLETSMEAVIYHFKHYTEGFHPPKGEVYVPTESARGELGYYIVSDGGSMPYRVKVRAPSFVNLQSLPYACKGEQVPDMVAIIASLDPVMGDVDR
B7: SPT15 (Saccharomyces cerevisiae, UniProt P13393); sequence looked up; chain MADEERLKEFKEANKIVFDPNTRQVWENQNRDGTKPATTFQSEEDIKRAAPESEKDTSATSGIVPTLQNIVATVTLGCRLDLKTVALHARNAEYNPKRFAAVIMRIREPKTTALIFASGKMVVTGAKSEDDSKLASRKYARIIQKIGFAAKFTDFKIQNIVGSCDVKFPIRLEGLAFSHGTFSSYEPELFPGLIYRMVKPKIVLLIFVSGKIVLTGAKQREEIYQAFEAIYPVLSEFRKM
B8: rI 25-97 (T4 phage, UniProt P13304); selenomethionine; sequence looked up; chain NVDPHFDKFMESGIRHVYMLFENKSVESSEQFYSFMRTTYKNDPCSSDFECIERGAEMAQSYARIMNIKLETE
B9: S100A8 1-93 C42S (Homo sapiens, UniProt P05109); chain MLTELEKALNSIIDVYHKYSLIKGNFHAVYRDDLKKLLETESPQYIRKKGADVWFKELDINTDGAVNFQEFLILVIKMGVAAHKKSHEESHKE
B10: ARR1 235-296 (Arabidopsis thaliana, UniProt Q940D0-2); sequence looked up; chain LKKPRVVWSVELHQQFVAAVNQLGVEKAVPKKILELMNVPGLTRENVASHLQKYRIYLRRLG
B11: Il22 34-179 E43H/S45R/Q49S/N68Q/N97Q/Q116W/Q128K (Mus musculus, UniProt Q9JJY9); sequence looked up; chain LPVNTRCKLHVRNFQSPYIVNRTFMLAKEASLADQNTDVRLIGEKLFRGVSAKDQCYLMKQVLQFTLEDVLLPQSDRFQPYMWEVVPFLTKLSNKLSSCHISGDDQNIQKNVRRLKETVKKLGESGEIKAIGELDLLFMSLRNACV
B12: TIF4631 572-853 K590R (Saccharomyces cerevisiae, UniProt P39935); sequence looked up; chain LVPSANRWVPKFKSKKTERKLAPDGKTELLDKDEVERKMKSLLNKLTLEMFDAISSEILAIANISVWETNGETLKAVIEQIFLKACDEPHWSSMYAQLCGKVVKELNPDITDETNEGKTGPKLVLHYLVARCHAEFDKGWTDKLPTNEDGTPLEPEMMSEEYYAAASAKRRGLGLVRFIGFLYRLNLLTGKMMFECFRRLMKDLTDSPSEETLESVVELLNTVGEQFETDSFRTGQATLEGSQLLDSLFGILDNIIQTAKISSRIKFKLIDIKELRHDKNWN
Sequence of UniProt P06702 (whole entry, unmodified, looked up): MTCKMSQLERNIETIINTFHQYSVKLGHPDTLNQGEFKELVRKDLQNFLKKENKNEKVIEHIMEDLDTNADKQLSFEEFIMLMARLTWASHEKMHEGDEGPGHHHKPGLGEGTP
Sequence of UniProt P24752 (whole entry, looked up): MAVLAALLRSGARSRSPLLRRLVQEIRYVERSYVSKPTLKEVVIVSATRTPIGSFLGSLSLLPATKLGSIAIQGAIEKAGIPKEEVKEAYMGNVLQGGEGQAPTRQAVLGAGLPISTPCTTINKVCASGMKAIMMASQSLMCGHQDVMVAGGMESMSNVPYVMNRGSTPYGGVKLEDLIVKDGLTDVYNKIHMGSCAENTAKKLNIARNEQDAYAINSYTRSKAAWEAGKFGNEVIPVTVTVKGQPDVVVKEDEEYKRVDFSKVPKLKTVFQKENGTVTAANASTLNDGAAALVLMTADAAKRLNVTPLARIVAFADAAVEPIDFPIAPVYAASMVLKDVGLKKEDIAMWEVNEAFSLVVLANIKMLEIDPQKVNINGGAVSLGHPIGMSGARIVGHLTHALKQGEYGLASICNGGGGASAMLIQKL
Sequence of UniProt Q99707 (whole entry, unmodified, looked up): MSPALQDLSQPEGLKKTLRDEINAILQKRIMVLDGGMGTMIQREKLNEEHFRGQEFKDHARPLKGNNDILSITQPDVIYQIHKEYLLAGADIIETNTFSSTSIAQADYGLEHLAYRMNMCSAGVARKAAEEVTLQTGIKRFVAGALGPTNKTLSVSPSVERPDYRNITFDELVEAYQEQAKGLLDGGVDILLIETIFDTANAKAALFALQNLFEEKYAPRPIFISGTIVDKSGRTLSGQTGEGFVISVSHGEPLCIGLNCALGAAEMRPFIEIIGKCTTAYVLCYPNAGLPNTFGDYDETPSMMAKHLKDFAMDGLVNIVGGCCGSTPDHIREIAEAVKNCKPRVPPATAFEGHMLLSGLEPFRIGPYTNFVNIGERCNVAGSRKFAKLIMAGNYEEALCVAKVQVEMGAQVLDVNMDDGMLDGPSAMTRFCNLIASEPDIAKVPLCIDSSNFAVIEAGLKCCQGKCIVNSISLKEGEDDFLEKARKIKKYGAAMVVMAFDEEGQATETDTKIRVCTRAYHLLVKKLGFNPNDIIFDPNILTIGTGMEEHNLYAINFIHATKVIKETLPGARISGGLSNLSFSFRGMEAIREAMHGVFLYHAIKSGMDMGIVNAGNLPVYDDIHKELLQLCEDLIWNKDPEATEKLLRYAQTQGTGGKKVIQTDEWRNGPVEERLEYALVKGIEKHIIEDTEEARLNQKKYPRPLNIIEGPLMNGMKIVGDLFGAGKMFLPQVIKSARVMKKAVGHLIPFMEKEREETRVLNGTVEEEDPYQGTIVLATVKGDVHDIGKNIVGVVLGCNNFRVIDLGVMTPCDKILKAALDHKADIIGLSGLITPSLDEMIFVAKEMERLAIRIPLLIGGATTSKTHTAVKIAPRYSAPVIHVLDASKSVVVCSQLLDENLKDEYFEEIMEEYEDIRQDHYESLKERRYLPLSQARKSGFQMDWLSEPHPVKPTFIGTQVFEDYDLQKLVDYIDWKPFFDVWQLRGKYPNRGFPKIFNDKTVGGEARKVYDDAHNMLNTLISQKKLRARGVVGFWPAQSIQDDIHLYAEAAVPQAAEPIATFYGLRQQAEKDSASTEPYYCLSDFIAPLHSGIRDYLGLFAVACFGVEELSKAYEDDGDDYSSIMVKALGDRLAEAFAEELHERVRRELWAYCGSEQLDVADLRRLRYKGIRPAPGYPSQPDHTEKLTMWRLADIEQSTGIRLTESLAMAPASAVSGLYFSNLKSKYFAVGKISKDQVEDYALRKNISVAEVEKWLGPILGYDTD
Sequence of UniProt P29597 (whole entry, looked up): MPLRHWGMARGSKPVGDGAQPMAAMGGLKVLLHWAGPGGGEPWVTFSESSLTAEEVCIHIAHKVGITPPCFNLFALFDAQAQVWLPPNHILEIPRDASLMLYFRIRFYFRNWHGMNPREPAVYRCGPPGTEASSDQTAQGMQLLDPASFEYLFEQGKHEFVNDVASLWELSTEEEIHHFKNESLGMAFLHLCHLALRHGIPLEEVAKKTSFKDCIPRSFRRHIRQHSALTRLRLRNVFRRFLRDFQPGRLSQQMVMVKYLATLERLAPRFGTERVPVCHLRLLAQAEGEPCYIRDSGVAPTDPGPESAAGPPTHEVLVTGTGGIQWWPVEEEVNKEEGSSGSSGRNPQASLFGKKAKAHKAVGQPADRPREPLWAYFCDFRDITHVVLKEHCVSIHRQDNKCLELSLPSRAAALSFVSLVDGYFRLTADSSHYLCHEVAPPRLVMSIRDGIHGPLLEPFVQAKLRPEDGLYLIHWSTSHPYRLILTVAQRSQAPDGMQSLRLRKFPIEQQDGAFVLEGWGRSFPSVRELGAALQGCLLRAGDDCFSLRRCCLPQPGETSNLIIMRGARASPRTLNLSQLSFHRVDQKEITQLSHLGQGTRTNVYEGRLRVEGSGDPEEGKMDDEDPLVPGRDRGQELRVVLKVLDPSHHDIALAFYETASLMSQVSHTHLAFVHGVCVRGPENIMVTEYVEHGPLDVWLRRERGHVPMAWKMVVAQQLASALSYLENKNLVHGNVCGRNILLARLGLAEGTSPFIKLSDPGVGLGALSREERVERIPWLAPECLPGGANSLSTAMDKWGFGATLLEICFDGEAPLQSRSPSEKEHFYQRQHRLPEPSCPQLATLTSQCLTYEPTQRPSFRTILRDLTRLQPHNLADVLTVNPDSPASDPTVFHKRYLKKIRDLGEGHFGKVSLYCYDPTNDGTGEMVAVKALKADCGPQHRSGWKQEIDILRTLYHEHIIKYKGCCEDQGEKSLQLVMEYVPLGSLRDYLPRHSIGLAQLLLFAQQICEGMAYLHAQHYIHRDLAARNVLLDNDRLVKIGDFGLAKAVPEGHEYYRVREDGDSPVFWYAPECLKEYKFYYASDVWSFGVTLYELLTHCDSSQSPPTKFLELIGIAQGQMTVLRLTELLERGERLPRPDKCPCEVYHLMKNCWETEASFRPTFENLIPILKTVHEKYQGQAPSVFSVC
Sequence of UniProt Q07955 (whole entry, looked up): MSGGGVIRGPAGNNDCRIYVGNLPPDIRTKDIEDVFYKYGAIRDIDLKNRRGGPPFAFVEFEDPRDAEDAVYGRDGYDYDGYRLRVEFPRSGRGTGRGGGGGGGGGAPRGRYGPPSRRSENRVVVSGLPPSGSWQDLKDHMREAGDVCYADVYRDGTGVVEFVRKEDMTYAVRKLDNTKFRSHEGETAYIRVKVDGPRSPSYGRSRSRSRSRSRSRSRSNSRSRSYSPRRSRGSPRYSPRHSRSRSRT
Sequence of UniProt Q92547 (whole entry, looked up): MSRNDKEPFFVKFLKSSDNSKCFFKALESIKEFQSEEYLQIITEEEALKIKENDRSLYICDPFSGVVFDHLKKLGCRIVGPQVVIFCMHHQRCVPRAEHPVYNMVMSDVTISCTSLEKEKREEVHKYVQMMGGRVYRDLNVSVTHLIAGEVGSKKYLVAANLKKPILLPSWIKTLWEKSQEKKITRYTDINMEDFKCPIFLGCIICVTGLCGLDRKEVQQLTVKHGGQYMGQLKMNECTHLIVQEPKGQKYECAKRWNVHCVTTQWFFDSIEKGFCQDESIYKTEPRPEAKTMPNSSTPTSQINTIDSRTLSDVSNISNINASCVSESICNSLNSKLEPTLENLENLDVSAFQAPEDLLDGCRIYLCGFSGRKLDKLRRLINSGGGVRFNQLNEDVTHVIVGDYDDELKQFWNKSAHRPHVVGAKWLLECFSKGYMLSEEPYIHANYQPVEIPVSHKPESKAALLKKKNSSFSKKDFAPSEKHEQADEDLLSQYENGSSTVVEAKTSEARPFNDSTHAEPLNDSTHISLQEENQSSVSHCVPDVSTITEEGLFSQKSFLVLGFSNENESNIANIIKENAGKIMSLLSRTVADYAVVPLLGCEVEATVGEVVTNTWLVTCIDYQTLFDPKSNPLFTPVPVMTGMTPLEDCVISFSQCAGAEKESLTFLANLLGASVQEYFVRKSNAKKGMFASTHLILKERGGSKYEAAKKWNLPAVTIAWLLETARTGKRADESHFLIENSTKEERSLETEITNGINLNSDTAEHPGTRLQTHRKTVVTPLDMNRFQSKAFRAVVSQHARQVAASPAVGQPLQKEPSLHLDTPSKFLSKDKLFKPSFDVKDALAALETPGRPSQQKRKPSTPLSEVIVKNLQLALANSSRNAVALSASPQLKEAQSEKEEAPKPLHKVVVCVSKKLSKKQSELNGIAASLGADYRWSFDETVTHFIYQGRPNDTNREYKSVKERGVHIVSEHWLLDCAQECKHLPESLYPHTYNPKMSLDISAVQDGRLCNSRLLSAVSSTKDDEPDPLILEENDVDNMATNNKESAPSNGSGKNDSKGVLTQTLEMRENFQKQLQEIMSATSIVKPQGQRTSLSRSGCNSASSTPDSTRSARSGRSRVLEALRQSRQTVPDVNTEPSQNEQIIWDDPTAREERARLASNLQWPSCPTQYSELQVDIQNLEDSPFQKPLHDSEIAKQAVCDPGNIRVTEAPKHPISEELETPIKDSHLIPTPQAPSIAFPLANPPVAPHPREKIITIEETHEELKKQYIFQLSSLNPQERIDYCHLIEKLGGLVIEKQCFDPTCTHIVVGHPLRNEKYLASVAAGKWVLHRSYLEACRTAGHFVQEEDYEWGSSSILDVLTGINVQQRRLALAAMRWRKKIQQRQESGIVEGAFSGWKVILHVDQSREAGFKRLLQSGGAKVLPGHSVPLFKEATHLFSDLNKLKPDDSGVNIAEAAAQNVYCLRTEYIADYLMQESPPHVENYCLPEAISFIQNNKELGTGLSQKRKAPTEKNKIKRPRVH

Substance	tested on	assay	system	conditions	quantity	result
B1 (recA 2-353)	topA 1-597 (Escherichia coli, UniProt P06612)	pull-down	–	together with: ATP 5 mM	binding	binds
Ac-FTTVDFSSIS[pT]PHYEDIPFTRT (PPARG residues 65-86 (Homo sapiens); N-acetyl, pT75; pT = C[C@@H](OP(=O)(O)O)[C@H](N)C(=O)O)	PIN1 (Homo sapiens, UniProt Q13526)	NMR	peptide	–	binding	binds
B2 (RNase B unfolded, reduced)	MNL1/PDI1 C579S (Saccharomyces cerevisiae)	pull-down	–	–	binding	binds
B3 (UBE2D3)	T1, Nedd4 HECT domain	SPR	–	–	binding	binds
B4 (MMADHC 116-296)	MTR 661-1265 (Homo sapiens, UniProt Q99707)	native gel	–	5 min, pH 8.3, 4 °C	binding	binds
B5 (UGT1A9)	O=C(c1ccccc1)c1ccc(O)cc1	steady-state kinetics	–	pH 7.4, 37 °C	Vmax/Km	68 µL/min/mg
B6 (nqo4)	nqo7/nqo8/nqo10/nqo11/nqo12/nqo13/nqo14 membrane domain (Thermus thermophilus)	SEC	–	–	binding	binds
BLM, hyperphosphorylated (Homo sapiens, UniProt P54132)	TOPBP1 (Homo sapiens, UniProt Q92547)	pull-down	–	–	binding	binds
B7 (SPT15)	SAGA complex (Saccharomyces cerevisiae, UniProt P38811)	native gel or EMSA	–	20 min, together with: Cy3-labeled TATA-box dsDNA 75 nM	binding	binds
B8 (rI 25-97)	holin T periplasmic domain 56-218, Cys175-Cys207 disulfide (UniProt P06808)	crystal structure	–	–	binding	binds
MPIFADHILNKFWILHYAGSGSSG (SPAM peptide L5A; peptide-RNA fusion)	CD274 ectodomain (Homo sapiens)	radioligand binding	peptide	1 h, 4 °C	binding	binds
SKDRKRHRSRDRRRGGSRSRSRSRSKSAERERRHKER (DDX23 41-77 (Homo sapiens, UniProt Q9BUQ8))	SRSF1, RS domain phosphorylated (Homo sapiens, UniProt Q07955)	pull-down	–	–	binding	binds
IDEYFSEQPLKNLLLSTSEEQIEKCFIIENISTIA (IFNAR1 478-512 (Homo sapiens, UniProt P17181); sequence looked up)	TYK2 23-583 (Homo sapiens, UniProt P29597)	crystal structure	peptide	–	binding	binds
MAIFLDHILNKFWILHYAGSGSSG (SPAM peptide P2A; peptide-RNA fusion)	CD274 ectodomain (Homo sapiens)	radioligand binding	peptide	1 h, 4 °C	binding	binds
B9 (S100A8 1-93 C42S)	S100A9 1-114 C3S/H103A/H105A (Homo sapiens, UniProt P06702)	SEC	–	without Ca2+	binding	binds
NBN (Homo sapiens, UniProt O60934)	RBBP8, phosphorylated (Homo sapiens, UniProt Q99708)	pull-down	–	–	binding	binds
B10 (ARR1 235-296)	ARR1 31-158 (Arabidopsis thaliana, UniProt Q940D0-2)	crystal structure	–	–	binding	binds
B11	Il10rb 20-220 N49Q/N102Q/N161Q/N199Q (Mus musculus, UniProt Q61190)	crystal structure	–	–	binding	binds
pdp1 (Schizosaccharomyces pombe, UniProt O59676)	histone H4 (Homo sapiens, UniProt P62805)	pull-down	–	–	binding	binds
ACAT1 (Homo sapiens, UniProt P24752)	IDH2 R140Q/K413R, tyrosine phosphorylated (Homo sapiens, UniProt P48735)	co-IP	–	–	binding	binds
B12 (TIF4631 572-853 K590R)	TIF1 Q186C/E305C, Alexa488/Alexa546 labels (Saccharomyces cerevisiae, UniProt P10081)	conformation of molecule, smFRET	–	–	binding	binds

Some of these lines once more:
Substance	tested on	assay	system	conditions	quantity	result
BLM, hyperphosphorylated (Homo sapiens, UniProt P54132)	TOPBP1 (Homo sapiens, UniProt Q92547)	pull-down	–	–	binding	binds
MAIFLDHILNKFWILHYAGSGSSG (SPAM peptide P2A; peptide-RNA fusion)	CD274 ectodomain (Homo sapiens)	radioligand binding	peptide	1 h, 4 °C	binding	binds
